Measured values pooled from the literature.
Every numbered part comes from another study and shows a few of its results, in no order. Changes are numbered by the printed parent chain.

Study 1
Target: RNA binding protein fox-1 homolog 2, RRM domain, GST-SBP tag (RBFOX2, Homo sapiens, UniProt O43251-10, residues 100-194)
Technique: RNA Bind-n-Seq
Form: RNA
Matrix: in vitro
Tested at: 365 nM
Notes: natural RNA segment, single round, ends assumed
Reference: no-protein control
Direction: higher = stronger binding
Quantity: RBNS enrichment (R)
Constant ends, left off below: GGGAGUUCUACAGUCCGACGAUC … UGGAAUUCUCGGGUGCCAA
Residues (chain): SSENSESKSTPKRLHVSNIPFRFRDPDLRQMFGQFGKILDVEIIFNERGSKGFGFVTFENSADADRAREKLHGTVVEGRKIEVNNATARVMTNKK
CUCUGGGCUUGACCAGUUCCCAAUCUCGUCCUCUGUCCCCAACUUCUUAAGCACAAUUGGGCUUCUUCCAUCUCCAGGUUUUCUGCCAUUCUUAACCAAGGCUGCCUCUU: 0.401
GGAAAUAAAACAGUUUUUGUUUGUUUCAGCUGGCCUCCUAUUUUGGACCCCCUGGGAAAGACAUGCAGUGUAGAUAAUGACUUUAGUAGCUCUCCAAUGAGAGCCUGACU: 0.495
GAAAAAUGCAGAGAAUCAGCCAAACCUUUGUCUCUCUGUAUUUUGGCAACAUGAACUGGGAAACAGAGCUCUCUCUGCCUAGAGAAAGGAGCGGCCCUCAAGAUCUCUUU: 0.21
CAGAUGGACGUGGUGCACGCCAACGCAGUGUCCCCUCCUAUGGUUAAUAUACUUUCGUUCCAUGGUGUGCAGGUUUUCUUUUACUUCAGUGUUAUGAUCUCUUCCAGCUG: 0.255
UGCCCCCACAGCACCCACAGAUCCCUGGCCCUUCCAGGAGUAAGUCCUGGGCAGGCAGAGCUGGGGUUGGCCUGAUCCCACCUGCCUUGCUCUUGGAAAGGACAUCAGGU: 0.817
AAAAUUACCUAUCCUGUAAAAAGACUGGUGAAAUUCAACAUGUUUUAAAUAAUUUAAUUGCAUUAUAGCAUAUAAACUAUAAAUGAAAAUGAUCUUUGUCUUUCCUUUAU: 0.92
UCUCUCUCUCUAAAUUUGGAUAUAUUUUCUUCCCAAAUUGAAUAUUUCCUUUGUUUAACUCCCCCCCCCCCCAAUAGCACCCAUUUGCCUCUCAUUCUCCCAAGGGUUGC: 0.906
UCACUGUUUUUCACUUUUCACUUCUGGCUUUUUUGUGGCCCAAGGCCAAUAUAGGAUUAAUAUCUGUGUUCCAGCUUCAGCCAGAACGAUAUGUCUGUCCAUCUUUCUCC: 0.524

Study 2
Target: CCNE2, cyclin fold, Cln2 fusion (human)
Technique: yeast growth competition, sequencing
Matrix: yeast
Notes: strong parent motif
Reference: not given
Direction: higher = stronger binding
Quantity: normalised enrichment score
Starting sequence: E2F1 docking peptide (human); PPVKRRLDLETDH
L7D: 0.645
R5T: 0.048
T11A: 1.73
E10K: 0.501
L7I: 0.906
D8R: 1.52
R6Y: 0.355

Study 3
Target: Ras GTPase-activating protein-binding protein 1, RRM domain (G3BP1, Homo sapiens, UniProt Q13283)
Chain of UniProt Q13283 (whole entry, looked up): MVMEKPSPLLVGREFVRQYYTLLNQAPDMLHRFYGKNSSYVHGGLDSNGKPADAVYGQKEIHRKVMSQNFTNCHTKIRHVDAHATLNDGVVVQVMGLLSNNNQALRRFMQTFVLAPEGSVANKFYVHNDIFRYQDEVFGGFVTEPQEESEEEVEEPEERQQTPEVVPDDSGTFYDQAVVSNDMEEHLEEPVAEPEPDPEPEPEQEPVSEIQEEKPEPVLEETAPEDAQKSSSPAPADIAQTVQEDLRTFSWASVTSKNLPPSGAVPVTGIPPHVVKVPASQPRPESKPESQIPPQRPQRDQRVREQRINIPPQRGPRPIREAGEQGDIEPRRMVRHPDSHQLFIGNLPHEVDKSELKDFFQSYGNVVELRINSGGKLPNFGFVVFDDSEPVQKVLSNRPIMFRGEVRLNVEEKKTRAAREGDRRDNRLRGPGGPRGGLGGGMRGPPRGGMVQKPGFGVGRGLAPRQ
Technique: RNA Bind-n-Seq
Form: RNA
Matrix: in vitro
Tested at: 1 µM
Notes: whole 134-nt RNA, ends assumed
With: 150 mM KCl
Reference: input library
Direction: higher = stronger binding
Quantity: log2 enrichment
Constant ends, left off below: GGGAGUUCUACAGUCCGACGAUC … UGGAAUUCUCGGGUGUCAAGG
AGUCCUGUGCUACACAUCGUAUGUACCGAAUCGGUUUUUUUGGAAAAAGGUUUUUGGAAAGUAUUAUGUUACGCCGUUCGGAUCUGCACU: -0.567
UUCCUCAAGUCCUGUGCUACACAUCGUAUGUACCGAAUCGGAGGGAGGAGGAAAGUAUUAUGUUACGCCGUUCGGAUCUGCACUUCCAGC: -0.259
AAAGGAAGUAAAAACAAAUGGAAAUGCUUCGGAUAGUGGCAGGGGUGGGGGUUGCUAAGGAAAGGGUGGGAUGGGAGUGGGUAAAGAGUU: 1.38
UCAAGUCCUGUGCUACACAUCGUAUGUACCGAAUCGGGGAAGGAAGGGAAGGGGAAAGUAUUAUGUUACGCCGUUCGGAUCUGCACUUCC: 0.0538
GUCCUGUGCUACACAUCGUAUGUACCGAAUCGGCCCCCGGCCCCCGGGGCCCCCGGGGAAAGUAUUAUGUUACGCCGUUCGGAUCUGCAC: -0.511

Mixed results
PhoQ, residues 284 288 289 292 302 303 HSSMNL
fold induction (PhoP, residues 12 14 15 18 19 LWHCS (Escherichia coli, UniProt P23836); Sort-seq, measured: YFP reporter; E. coli; PhoQ-PhoP variant library, with: 10 µM Mg2+; reference: high Mg2+ state, higher = stronger signaling): 19.5

Some of these lines once more (study 2):
L7I: 0.906
L7D: 0.645
